Experimental data from different studies.
Each line is one published result; not all experiments were run side by side. ± gives the spread as reported.
OPRK1: Kappa-type opioid receptor (OPRK1, Homo sapiens, UniProt P41145)

Amino acid sequences for entries named in this document (tags omitted).
UniProt P41145, whole entry: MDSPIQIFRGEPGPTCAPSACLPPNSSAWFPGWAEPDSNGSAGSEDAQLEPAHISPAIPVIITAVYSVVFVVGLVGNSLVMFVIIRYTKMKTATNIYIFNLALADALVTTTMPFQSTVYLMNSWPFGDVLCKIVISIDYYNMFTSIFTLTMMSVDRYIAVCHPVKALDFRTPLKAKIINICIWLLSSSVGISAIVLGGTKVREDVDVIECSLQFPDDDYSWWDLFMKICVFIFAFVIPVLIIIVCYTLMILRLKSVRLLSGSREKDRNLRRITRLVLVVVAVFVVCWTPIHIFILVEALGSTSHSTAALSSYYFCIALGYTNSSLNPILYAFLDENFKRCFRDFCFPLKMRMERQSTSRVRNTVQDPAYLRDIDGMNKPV
UniProt P41145, whole entry E297K: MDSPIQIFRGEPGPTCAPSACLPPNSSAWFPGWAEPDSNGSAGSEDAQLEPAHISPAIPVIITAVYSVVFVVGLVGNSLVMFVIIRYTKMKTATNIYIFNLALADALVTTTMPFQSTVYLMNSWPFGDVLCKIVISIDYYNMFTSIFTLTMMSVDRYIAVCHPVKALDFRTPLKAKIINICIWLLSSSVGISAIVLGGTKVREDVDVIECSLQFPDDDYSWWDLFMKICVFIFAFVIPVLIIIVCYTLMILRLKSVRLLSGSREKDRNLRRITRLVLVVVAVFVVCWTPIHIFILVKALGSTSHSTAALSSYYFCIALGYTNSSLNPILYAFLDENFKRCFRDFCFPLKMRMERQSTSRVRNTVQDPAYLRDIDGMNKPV
UniProt Q96NX5, whole entry: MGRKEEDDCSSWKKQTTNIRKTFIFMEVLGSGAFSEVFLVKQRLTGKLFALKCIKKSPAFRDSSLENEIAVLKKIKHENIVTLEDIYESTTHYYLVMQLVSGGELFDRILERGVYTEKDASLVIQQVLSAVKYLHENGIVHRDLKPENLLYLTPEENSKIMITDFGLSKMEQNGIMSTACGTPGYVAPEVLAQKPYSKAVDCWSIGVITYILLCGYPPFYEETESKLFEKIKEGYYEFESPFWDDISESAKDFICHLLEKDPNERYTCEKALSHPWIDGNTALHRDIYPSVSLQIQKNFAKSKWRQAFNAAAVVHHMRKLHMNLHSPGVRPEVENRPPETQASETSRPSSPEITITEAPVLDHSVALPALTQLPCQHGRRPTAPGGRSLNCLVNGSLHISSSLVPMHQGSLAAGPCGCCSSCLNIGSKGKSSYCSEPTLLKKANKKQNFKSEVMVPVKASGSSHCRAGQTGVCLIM

Molecule | target | test | system | conditions | how to read | endpoint | value
CN(C(=O)Cc1ccc(Cl)c(Cl)c1)C1CCC2(CCCO2)CC1N1CCCC1 (stereo not drawn) | OPRK1 | receptor internalization, agonist, on-cell western | N2a | 1 h, human receptor | – | EC50 | 68 nM
[3H]diprenorphine | OPRK1 (Homo sapiens, UniProt P41145, E297K) | radioligand, saturation binding | N2a cell membranes | 1 h, pH 7.4, room temperature, added: [3H]diprenorphine | – | Kd | 0.13 ± 0.03 nM
CN(C(=O)Cc1cccc2occc12)[C@H]1CC[C@@]2(CCCO2)C[C@@H]1N1CCCC1 | OPRK1 | agonist | – | human receptor | – | EC50 | 7.5 nM
CO[C@]12CC[C@@]3(C[C@@H]1[C@@H](O)c1ccccc1)[C@H]1Cc4ccc(O)c5c4[C@@]3(CCN1CC1CC1)[C@H]2O5 | OPRK1 | G-protein activation, agonist | – | – | – | EC50 | 0.36 ± 0.03 nM
CO[C@]12CC[C@@]3(C[C@@H]1[C@@](C)(O)C(C)(C)C)[C@H]1Cc4cc(Br)c(O)c5c4[C@@]3(CCN1CC1CC1)[C@H]2O5 | OPRK1 | radioligand binding | CHO | added: [3H]U69593 | – | Ki | 35.5 ± 3.9 nM
CCN1CCN(Cc2ccc(NC(=O)c3ccc(C)c(/C=C/c4cnc5[nH]ccc5c4OC)c3)cc2C(F)(F)F)CC1 | CAMK1G (Homo sapiens, UniProt Q96NX5) | inhibitor, cell-based kinome screen | human cells | 5 µM | reference: vehicle | log2 fold change | 0.21
CC#C/C(=N\OC[C@H]1COCCN1)c1ccc2ncnc(Nc3ccc(OCc4cccc(F)c4)c(Cl)c3)c2c1 | Cyclin-dependent kinase 2, part with cyclin A (CDK2, Homo sapiens, UniProt P24941) | kinase activity | – | 10 µM | – | inhibition | 21.1%
CO[C@]12C=C[C@@]3(C[C@@H]1[C@H](O)c1ccccc1)[C@H]1Cc4ccc(O)c5c4[C@@]3(CCN1CC1CC1)[C@H]2O5 | OPRK1 | G-protein activation, agonist | – | – | – | EC50 | 2.1 ± 0.49 nM
CO[C@]12CC[C@@]3(C[C@@H]1[C@](C)(O)CC(C)(C)C)[C@H]1Cc4ccc(O)c5c4[C@@]3(CCN1CC1CC1)[C@H]2O5 | OPRK1 | radioligand binding | CHO | added: [3H]U69593 | – | Ki | 1.59 ± 0.25 nM
COC(=O)[C@@H]1C[C@H](OC(=O)CSC#N)C(=O)[C@H]2[C@@]1(C)CC[C@H]1C(=O)O[C@H](c3ccoc3)C[C@]21C | OPRK1 | agonist | – | – | – | EC50 | 0.077 ± 0.016 nM
CC[C@@](O)(c1ccccc1)[C@H]1C[C@@]23CC[C@]1(OC)[C@@H]1Oc4c(O)ccc5c4[C@@]12CCN(CC1CC1)[C@@H]3C5 | OPRK1 | G-protein activation, agonist | – | – | – | EC50 | 249 ± 120 nM
methoxymethyl salvinorin B | OPRK1 | receptor internalization, agonist, on-cell western | N2a | 1 h, human receptor | – | EC50 | 3.2 nM
